Earlier results as cited in several papers.
Each numbered part shows a few of the values that one paper quotes. ± gives the spread as reported.

Amino acid sequences for entries named in this document (tags omitted). Residues count along the entry.
UniProt Q99816, whole entry, looked up: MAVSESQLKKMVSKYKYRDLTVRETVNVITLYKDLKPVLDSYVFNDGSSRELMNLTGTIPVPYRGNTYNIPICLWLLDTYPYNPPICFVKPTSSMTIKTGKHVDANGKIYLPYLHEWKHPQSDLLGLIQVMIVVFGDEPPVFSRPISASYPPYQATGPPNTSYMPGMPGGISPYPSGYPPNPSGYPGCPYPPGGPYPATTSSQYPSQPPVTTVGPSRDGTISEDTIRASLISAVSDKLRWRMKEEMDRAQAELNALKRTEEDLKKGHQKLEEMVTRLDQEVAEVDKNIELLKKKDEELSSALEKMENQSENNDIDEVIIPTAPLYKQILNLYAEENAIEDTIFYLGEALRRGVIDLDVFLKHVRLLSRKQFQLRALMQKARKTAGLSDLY
UniProt P14416, whole entry: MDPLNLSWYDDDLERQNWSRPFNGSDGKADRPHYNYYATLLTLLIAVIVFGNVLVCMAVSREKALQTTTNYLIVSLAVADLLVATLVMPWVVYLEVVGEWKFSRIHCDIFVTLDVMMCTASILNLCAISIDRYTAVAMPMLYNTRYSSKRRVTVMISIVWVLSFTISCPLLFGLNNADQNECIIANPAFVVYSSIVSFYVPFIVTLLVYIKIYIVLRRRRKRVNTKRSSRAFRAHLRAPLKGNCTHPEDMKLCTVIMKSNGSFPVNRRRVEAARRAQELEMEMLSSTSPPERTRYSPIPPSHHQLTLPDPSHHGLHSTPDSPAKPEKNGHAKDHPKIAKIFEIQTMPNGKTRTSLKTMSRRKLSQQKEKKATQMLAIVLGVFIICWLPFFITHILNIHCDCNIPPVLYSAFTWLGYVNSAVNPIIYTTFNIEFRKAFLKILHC
UniProt P17787, 26-502 limits assumed: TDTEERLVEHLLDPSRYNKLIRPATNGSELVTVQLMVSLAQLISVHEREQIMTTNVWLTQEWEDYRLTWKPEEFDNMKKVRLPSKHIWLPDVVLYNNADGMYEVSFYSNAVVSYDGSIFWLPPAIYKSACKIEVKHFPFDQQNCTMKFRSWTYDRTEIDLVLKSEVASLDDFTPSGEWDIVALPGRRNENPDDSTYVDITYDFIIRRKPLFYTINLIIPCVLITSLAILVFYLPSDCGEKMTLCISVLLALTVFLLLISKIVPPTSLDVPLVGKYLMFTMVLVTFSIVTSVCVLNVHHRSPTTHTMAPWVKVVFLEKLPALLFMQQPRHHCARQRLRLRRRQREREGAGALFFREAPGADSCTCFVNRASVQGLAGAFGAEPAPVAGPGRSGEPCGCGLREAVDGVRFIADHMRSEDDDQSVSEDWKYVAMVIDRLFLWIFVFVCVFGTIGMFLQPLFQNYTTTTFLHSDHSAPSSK
UniProt P43681, 29-627 limits assumed: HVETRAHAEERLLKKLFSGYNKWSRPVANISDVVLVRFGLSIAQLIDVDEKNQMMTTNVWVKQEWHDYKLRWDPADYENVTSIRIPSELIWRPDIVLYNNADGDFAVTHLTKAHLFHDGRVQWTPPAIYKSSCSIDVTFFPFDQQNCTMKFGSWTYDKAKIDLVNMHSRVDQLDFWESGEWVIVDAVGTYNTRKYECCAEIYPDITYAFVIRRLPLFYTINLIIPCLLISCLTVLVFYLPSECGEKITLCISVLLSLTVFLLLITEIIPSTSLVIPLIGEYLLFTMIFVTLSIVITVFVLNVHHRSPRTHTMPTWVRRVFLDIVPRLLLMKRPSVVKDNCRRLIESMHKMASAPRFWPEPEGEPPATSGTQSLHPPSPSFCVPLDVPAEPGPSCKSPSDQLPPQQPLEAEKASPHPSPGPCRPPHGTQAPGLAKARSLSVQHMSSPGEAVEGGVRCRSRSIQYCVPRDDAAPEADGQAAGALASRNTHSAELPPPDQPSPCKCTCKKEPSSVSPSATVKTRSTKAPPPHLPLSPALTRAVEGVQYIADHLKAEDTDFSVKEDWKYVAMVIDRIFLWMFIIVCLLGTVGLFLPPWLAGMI

Study 1
Target: HLA class I histocompatibility antigen, A alpha chain, allele A*25:01 (Homo sapiens, UniProt P04439)
SMILES	IC50 [µM]
C[C@H](NC(=O)[C@H](CCC(N)=O)NC(=O)[C@@H](N)Cc1ccccc1)C(=O)NCC(=O)N[C@@H](Cc1c[nH]c2ccccc12)C(=O)N[C@@H](CCC(=O)O)C(=O)N[C@@H](CC(=O)O)C(=O)N1CCC[C@H]1C(=O)N[C@H](C(=O)O)[C@@H](C)O	> 20
CC(C)C[C@H](NC(=O)[C@H](CC(C)C)NC(=O)[C@H](CC(C)C)NC(=O)[C@H](Cc1ccc(O)cc1)NC(=O)[C@H](CC(=O)O)NC(=O)[C@H](C)NC(=O)[C@H](CC(C)C)NC(=O)[C@@H](N)CCCCN)C(=O)N[C@@H](CCC(N)=O)C(=O)O	> 20
CSCC[C@H](N)C(=O)N1CCC[C@H]1C(=O)N[C@@H](CC(=O)O)C(=O)N[C@H](C(=O)N[C@@H](CC(C)C)C(=O)N[C@@H](Cc1ccccc1)C(=O)N[C@@H](CCC(=O)O)C(=O)NCC(=O)N[C@H](C(=O)O)C(C)C)[C@@H](C)O	> 20
CC[C@H](C)[C@H](NC(=O)[C@H](CCC(N)=O)NC(=O)[C@@H](N)Cc1ccccc1)C(=O)N[C@@H](CC(C)C)C(=O)N[C@@H](Cc1c[nH]cn1)C(=O)N[C@@H](CC(=O)O)C(=O)N[C@@H](CCCNC(=N)N)C(=O)N[C@@H](Cc1ccccc1)C(=O)N[C@@H](Cc1ccccc1)C(=O)O	> 20
CSCC[C@H](NC(=O)[C@H](CCCCN)NC(=O)[C@@H]1CCCN1C(=O)[C@H](CC(=O)O)NC(=O)[C@H](CCCCN)NC(=O)[C@H](CCSC)NC(=O)[C@@H](N)CCCCN)C(=O)N[C@@H](Cc1ccc(O)cc1)C(=O)N[C@@H](Cc1c[nH]cn1)C(=O)O	> 20
CSCC[C@H](NC(=O)[C@H](CC(C)C)NC(=O)[C@H](CCSC)NC(=O)[C@@H](N)Cc1ccc(O)cc1)C(=O)NCC(=O)N[C@@H](Cc1ccccc1)C(=O)N[C@@H](CCC(N)=O)C(=O)N[C@@H](CC(C)C)C(=O)N[C@@H](CCCCN)C(=O)O	> 20
CC(C)C[C@H](NC(=O)[C@@H](NC(=O)[C@@H](NC(=O)[C@H](CO)NC(=O)[C@H](Cc1ccccc1)NC(=O)[C@H](CS)NC(=O)[C@@H](N)CCC(N)=O)C(C)C)C(C)C)C(=O)N[C@@H](CCCNC(=N)N)C(=O)N[C@@H](Cc1ccc(O)cc1)C(=O)O	> 20

Further values, each from its own experiment
SMILES	tested on	test	system	conditions	measurement	result
CSCC[C@H](NC(=O)[C@@H]1CCCN1C(=O)[C@@H]1CCCN1C(=O)[C@H](CCSC)NC(=O)[C@@H]1CCCN1C(=O)[C@@H]1CCCN1C(=O)[C@H](C)NC(=O)[C@H](CO)NC(=O)[C@@H]1CCCN1C(=O)[C@@H](NC(=O)[C@H](CC(C)C)NC(=O)[C@H](CO)NC(=O)CNC(=O)CNC(=O)[C@@H](N)Cc1ccc(O)cc1)C(C)C)C(=O)O	Tumor susceptibility gene 101 protein, UEV domain (Homo sapiens, UniProt Q99816)	–	–	25 °C	Kd	7.7 µM
Cc1cc(Nc2ccc(S(F)(F)(F)(F)F)cc2)n2nc(C(C)(F)F)nc2n1	Plasmodium falciparum	–	mouse	dose not given, twice daily dosing	AUC at ED90	26 µM.h/day
Clc1ccc(N2CCN(Cc3cnn4ccccc34)CC2)cc1	D(2) dopamine receptor (DRD2, Homo sapiens, UniProt P14416)	binding	–	–	Ki	3.2 ± 0.058 µM
COCCC1CC1c1cncc(OC[C@@H]2CCN2)c1 (some centres unmarked)	Neuronal acetylcholine receptor; alpha4/beta2 (Homo sapiens, UniProt P17787+P43681)	receptor inactivation	SH-EP1 expressing human α4β2	–	efficacy	71%
O=P(O)(O)C(O)(Cc1cnc2ccccn12)P(=O)(O)O	Plasmodium falciparum	parasite growth, inhibitor	–	–	IC50	> 70 µM
Cc1cn([C@@H]2CC[C@H](OC(C(=O)O)P(=O)(O)O)C2)c(=O)[nH]c1=O (relative stereo)	DNA polymerase beta (POLB, Homo sapiens, UniProt P06746)	enzyme activity, inhibitor	–	–	IC50	> 500 µM
CCCN(CCC)c1c([N+](=O)[O-])cc(S(=O)(=O)Nc2ccccc2)cc1[N+](=O)[O-]	Vero	viability	–	–	IC50	9.7 ± 1.1 µM

A few entries again (further values, each from its own experiment):
SMILES	tested on	test	system	conditions	measurement	result
CCCN(CCC)c1c([N+](=O)[O-])cc(S(=O)(=O)Nc2ccccc2)cc1[N+](=O)[O-]	Vero	viability	–	–	IC50	9.7 ± 1.1 µM
